Measured values pooled from the literature.
Compare with care: the assays were run in different laboratories. Values joined by “and” are separate records of one study, mostly repeats; a detail may differ. ± gives the spread as reported.
aacA4: Aminoglycoside N(6')-acetyltransferase type 1 (aacA4, Klebsiella pneumoniae, UniProt P19650)
Calmodulin-domain protein kinase 1, putative: Calmodulin-domain protein kinase 1, putative (Cryptosporidium parvum, UniProt A3FQ16)
Leucine--tRNA ligase: Leucine--tRNA ligase (Staphylococcus aureus, UniProt Q2FXH2)
Inosine-5'-monophosphate dehydrogenase: Inosine-5'-monophosphate dehydrogenase (Cryptosporidium parvum, UniProt Q8T6T2)
VIM-2: Metallo-beta-lactamase VIM-2 (VIM-2, Escherichia coli, UniProt Q5U7L7)
cyp121: Mycocyclosin synthase (cyp121, Mycobacterium tuberculosis, UniProt P9WPP7)
UDP-N-acetylglucosamine--dolichyl-phosphate N-acetylglucosaminephosphotransferase: UDP-N-acetylglucosamine--dolichyl-phosphate N-acetylglucosaminephosphotransferase (Homo sapiens, UniProt Q9H3H5)

The chains behind the UniProt entries cited, without tags or fusion partners. Residues count along the entry.
UniProt P19650, whole entry: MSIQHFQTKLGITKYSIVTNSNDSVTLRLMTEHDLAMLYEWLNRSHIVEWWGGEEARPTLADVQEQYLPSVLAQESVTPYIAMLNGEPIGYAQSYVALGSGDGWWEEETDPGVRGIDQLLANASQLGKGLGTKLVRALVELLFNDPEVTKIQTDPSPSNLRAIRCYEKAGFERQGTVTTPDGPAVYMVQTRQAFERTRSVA
UniProt A3FQ16, 1-538: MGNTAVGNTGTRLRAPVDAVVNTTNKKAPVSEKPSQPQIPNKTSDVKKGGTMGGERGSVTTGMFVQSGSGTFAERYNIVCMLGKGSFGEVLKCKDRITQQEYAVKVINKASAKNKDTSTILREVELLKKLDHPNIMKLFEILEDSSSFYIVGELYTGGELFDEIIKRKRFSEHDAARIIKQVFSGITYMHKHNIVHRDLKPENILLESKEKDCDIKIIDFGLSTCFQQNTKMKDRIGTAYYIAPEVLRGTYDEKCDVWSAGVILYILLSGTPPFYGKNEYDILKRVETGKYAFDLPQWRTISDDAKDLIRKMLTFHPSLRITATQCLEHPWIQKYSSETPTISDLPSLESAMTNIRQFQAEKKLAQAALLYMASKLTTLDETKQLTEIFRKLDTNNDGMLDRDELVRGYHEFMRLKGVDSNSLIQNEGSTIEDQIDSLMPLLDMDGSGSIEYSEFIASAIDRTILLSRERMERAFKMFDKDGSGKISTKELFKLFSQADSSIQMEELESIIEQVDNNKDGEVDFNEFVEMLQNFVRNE
UniProt Q8T6T2, whole entry: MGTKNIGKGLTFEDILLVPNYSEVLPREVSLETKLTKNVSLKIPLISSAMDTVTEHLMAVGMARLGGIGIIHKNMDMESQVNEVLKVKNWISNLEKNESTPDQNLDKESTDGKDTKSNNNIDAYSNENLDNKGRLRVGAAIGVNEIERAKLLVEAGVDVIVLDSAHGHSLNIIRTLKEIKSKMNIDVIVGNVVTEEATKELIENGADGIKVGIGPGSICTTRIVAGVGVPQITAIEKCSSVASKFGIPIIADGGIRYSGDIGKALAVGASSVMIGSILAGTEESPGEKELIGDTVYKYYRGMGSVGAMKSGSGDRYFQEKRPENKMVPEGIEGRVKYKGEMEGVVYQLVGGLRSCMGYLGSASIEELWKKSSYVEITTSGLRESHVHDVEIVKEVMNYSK
UniProt P9WPP7, whole entry: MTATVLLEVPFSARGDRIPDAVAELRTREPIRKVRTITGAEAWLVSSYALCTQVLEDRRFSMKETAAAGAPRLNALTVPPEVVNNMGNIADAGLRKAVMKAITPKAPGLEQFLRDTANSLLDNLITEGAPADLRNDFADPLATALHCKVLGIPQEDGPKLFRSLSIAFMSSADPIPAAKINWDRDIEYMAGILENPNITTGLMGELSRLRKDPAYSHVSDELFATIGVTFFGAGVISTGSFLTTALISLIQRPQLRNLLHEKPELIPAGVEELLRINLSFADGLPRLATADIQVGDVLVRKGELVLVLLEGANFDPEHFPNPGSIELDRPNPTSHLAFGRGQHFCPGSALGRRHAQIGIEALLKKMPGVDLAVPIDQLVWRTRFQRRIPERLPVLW
UniProt P08246, whole entry, looked up: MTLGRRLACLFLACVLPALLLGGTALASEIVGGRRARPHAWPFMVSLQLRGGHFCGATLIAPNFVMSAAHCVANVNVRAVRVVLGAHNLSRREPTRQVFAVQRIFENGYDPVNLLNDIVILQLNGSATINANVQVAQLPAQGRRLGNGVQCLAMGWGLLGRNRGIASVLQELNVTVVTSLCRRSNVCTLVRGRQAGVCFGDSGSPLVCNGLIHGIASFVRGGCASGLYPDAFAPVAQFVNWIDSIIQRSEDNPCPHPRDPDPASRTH
UniProt Q38F42, 1-925: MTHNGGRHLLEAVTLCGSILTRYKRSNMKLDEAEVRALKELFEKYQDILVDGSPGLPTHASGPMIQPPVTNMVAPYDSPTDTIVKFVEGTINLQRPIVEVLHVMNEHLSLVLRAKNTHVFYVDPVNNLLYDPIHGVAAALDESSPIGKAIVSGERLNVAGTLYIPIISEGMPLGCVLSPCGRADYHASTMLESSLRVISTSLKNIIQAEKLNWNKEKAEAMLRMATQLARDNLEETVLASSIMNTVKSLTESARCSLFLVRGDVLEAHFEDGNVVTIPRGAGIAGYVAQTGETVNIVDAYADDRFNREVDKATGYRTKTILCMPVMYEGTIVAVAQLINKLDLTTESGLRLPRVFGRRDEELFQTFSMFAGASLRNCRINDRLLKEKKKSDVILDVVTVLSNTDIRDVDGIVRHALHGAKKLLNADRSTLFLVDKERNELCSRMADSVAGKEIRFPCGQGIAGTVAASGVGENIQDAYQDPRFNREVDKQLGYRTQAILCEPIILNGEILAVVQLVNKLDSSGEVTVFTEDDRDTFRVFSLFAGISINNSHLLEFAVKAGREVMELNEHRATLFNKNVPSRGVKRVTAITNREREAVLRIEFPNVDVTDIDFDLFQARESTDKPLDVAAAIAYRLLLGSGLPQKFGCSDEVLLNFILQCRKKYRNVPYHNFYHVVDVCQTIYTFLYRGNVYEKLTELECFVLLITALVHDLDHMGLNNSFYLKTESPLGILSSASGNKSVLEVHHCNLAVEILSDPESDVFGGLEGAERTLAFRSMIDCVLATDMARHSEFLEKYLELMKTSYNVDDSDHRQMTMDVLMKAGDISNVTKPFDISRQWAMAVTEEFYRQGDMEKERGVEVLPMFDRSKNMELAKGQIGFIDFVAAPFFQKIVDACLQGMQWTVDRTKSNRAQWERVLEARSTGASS
UniProt P21860, 20-1342 limits assumed: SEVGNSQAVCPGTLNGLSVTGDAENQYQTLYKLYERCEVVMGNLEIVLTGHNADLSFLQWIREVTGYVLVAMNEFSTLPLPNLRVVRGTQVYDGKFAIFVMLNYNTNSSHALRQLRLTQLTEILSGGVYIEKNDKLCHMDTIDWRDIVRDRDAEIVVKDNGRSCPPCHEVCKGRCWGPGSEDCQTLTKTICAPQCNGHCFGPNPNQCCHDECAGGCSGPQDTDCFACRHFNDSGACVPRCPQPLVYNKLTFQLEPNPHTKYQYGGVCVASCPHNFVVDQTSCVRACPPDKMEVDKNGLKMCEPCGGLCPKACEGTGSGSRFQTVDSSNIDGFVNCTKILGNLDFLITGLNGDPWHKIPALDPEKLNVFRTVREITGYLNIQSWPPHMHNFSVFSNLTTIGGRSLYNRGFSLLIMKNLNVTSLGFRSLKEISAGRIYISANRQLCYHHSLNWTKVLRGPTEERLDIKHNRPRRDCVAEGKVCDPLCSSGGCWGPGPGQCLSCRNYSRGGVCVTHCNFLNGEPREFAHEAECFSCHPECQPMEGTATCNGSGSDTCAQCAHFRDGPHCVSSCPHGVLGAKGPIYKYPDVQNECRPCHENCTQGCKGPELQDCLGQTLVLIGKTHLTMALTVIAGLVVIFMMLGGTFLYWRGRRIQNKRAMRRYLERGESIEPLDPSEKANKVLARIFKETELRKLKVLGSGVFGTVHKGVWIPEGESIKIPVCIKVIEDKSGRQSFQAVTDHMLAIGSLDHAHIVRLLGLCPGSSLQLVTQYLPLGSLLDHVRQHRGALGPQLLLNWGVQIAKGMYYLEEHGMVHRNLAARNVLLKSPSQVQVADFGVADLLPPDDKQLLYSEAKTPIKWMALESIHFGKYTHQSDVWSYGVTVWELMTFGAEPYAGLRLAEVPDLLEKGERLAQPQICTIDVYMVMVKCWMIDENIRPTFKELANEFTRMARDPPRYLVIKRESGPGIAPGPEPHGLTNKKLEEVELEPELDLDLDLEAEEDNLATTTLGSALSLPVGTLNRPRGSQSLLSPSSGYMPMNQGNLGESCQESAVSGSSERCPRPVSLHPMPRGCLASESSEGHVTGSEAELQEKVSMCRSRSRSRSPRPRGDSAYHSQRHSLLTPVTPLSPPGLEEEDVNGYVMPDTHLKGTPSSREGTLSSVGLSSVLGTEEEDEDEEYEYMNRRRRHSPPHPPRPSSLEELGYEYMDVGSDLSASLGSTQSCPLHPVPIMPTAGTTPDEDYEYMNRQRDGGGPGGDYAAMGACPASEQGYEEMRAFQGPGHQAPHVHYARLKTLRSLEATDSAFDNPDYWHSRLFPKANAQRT
UniProt P00533, 25-1210 T790M limits assumed: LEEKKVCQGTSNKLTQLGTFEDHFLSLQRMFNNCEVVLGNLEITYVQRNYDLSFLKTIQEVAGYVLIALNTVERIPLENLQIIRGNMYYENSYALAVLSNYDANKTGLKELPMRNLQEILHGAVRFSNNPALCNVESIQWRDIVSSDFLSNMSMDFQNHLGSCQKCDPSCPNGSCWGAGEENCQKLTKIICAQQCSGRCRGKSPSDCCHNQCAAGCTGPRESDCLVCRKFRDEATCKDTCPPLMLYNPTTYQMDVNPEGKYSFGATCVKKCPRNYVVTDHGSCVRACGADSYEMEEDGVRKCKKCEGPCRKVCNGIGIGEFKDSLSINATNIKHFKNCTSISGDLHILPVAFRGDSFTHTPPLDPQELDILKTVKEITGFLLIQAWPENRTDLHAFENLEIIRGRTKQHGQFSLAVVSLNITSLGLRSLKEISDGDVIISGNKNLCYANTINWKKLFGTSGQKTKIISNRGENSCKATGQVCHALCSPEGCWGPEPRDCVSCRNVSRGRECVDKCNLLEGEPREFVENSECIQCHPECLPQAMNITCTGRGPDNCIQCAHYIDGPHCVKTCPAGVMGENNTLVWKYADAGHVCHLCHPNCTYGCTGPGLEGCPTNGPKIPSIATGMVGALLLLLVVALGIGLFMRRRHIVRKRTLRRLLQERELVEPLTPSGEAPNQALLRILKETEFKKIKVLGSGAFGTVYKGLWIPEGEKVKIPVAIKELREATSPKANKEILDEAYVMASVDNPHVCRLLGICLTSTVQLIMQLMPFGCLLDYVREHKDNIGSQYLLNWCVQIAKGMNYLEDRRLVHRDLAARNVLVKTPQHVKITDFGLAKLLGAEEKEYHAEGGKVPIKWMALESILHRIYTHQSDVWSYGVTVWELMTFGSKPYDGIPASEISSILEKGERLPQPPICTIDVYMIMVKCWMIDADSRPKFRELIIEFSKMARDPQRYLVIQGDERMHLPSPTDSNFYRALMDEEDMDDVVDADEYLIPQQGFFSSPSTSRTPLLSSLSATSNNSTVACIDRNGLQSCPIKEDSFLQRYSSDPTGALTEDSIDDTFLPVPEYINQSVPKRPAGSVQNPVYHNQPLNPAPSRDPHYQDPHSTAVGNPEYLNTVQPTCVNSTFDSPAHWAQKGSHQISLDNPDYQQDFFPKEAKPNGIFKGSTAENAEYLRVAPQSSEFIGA
UniProt Q4JH30, 1-414 limits assumed: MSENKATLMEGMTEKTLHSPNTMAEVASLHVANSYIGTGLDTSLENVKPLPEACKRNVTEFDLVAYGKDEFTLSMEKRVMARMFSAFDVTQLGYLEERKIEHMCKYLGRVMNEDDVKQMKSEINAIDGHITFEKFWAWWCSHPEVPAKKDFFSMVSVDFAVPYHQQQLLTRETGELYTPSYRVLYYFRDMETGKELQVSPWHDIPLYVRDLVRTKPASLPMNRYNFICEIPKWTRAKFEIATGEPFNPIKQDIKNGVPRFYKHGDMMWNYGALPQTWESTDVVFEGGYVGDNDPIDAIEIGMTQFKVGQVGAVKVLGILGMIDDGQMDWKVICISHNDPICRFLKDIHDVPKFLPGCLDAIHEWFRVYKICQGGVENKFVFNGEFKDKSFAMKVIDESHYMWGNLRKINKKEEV
UniProt Q9UM07, whole entry: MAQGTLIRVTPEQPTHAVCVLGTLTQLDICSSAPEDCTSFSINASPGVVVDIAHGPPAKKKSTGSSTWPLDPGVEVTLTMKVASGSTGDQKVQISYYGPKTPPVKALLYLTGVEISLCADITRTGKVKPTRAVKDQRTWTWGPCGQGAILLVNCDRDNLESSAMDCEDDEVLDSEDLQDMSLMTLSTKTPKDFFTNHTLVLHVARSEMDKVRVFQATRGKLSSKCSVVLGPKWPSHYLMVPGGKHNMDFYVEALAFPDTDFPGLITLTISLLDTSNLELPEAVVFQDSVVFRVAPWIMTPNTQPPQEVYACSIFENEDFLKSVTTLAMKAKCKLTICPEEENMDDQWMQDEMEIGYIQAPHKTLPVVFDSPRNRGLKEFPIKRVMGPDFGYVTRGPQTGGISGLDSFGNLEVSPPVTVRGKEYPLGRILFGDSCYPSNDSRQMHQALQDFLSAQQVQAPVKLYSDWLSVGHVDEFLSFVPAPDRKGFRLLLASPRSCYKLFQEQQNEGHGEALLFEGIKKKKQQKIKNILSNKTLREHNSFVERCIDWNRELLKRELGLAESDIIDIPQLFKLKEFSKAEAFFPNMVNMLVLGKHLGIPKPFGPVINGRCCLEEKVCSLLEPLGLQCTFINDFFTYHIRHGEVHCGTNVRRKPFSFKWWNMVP
UniProt P26918, whole entry, looked up: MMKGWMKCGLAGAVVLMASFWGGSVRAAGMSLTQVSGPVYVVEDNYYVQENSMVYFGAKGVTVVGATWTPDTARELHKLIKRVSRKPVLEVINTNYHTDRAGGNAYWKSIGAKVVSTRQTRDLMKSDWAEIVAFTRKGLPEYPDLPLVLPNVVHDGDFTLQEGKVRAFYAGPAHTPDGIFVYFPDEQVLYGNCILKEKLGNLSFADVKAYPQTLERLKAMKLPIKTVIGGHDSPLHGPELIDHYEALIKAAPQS

Compound = CC(C)CC(NC(=O)C1OC1C(=O)O)C(=O)NCCCCN=C(N)N (stereo not shown); target or system = Papain (Carica papaya, UniProt P00784); assay = enzyme activity, inhibitor; measurement = IC50; value = 0.159 nM
Compound = NCCNCCSc1ccccc1; system = Swiss Albino mouse, female; setting = oral, 600 mg/kg, single dose, non-compartmental; measurement = lag time (Tlag); value = 0 min
Compound = COC(C)(C)Cn1nc(-c2ccc3cc(OC4CC4)ccc3c2)c2c(N)ncnc21; target or system = CDPK1 (Toxoplasma gondii, UniProt Q9BJF5); assay = enzyme activity, inhibitor, Kinase-Glo; setting = together with: syntide-2; measurement = IC50; value = 1660 nM
Compound = NC[C@@H](NC[C@@H]1CCCN1C[C@@H](CO)NC[C@@H](NCCC12CC3CC(CC(C3)C1)C2)c1ccccc1)c1ccccc1; target or system = aacA4; assay = acetyltransferase activity, inhibitor; measurement = IC50; value = 5700 nM
Compound = Cc1ccc(N(C)c2cc(N(C)C3CC3)n3ncc(C#N)c3n2)cc1NC(=O)C1CC1; target or system = CSNK2A1 (Homo sapiens, UniProt P68400); assay = inhibitor; measurement = IC50; value = > 10000 nM
Compound = [N-]=[N+]=CC(=O)[C@H](Cc1cccc([N+](=O)[O-])c1)NC(=O)OCc1ccccc1; target or system = Neutrophil elastase (ELANE, Homo sapiens, UniProt P08246); assay = enzyme activity, inhibitor; setting = together with: MeOSuc-AAPV-AMC substrate; measurement = IC50; value = > 40000 nM
Compound = CCc1cc(-c2ccc3cnn(C)c3c2)cc2c(Nc3cccc(OC)c3)c(C(N)=O)cnc12; target or system = cAMP phosphodiesterase B2 (Trypanosoma brucei, UniProt Q38F42); assay = enzyme activity, inhibitor; measurement = IC50; value = 5600 ± 3400 nM
Compound = CC(C)(O)Cn1nc(-c2ccc3nc(OC4CC4)ccc3c2)c2c(N)ncnc21; target or system = Calmodulin-domain protein kinase 1, putative; assay = enzyme activity, inhibitor, Kinase-Glo; setting = together with: syntide-2; measurement = IC50; value = 3.2 nM
Compound = COCCCn1nc(-c2ccc(CC(=O)Nc3cccc(F)c3)cc2)c2c(N)ncnc21; target or system = NTRK1 (Homo sapiens, UniProt P04629); assay = inhibitor; measurement = IC50; value = 1740 ± 430 nM
Compound = COc1ccc(CN[C@@H]2CO[C@H](C(c3ccccc3)c3ccccc3)C[C@H]2O)cc1; target or system = HTR1B (Homo sapiens, UniProt P28222); assay = radioligand binding; setting = 10 µM, together with: [3H]GR-125743; measurement = inhibition; value = 9.1%
Compound = COc1cc2c(N(C)C)nc(NCCCN(C)C)nc2cc1OCCCCCN; target or system = Histone-lysine N-methyltransferase EHMT1, SET domain (EHMT1, Homo sapiens, UniProt Q9H9B1); assay = methyltransferase activity, inhibitor; setting = 5 min, 30 °C, together with: H3 peptide 5 µM, SAM 100 µM; measurement = IC50; value = 75000 nM
Compound = CCC(=O)Nc1cc(-c2nn(C3CCN(CCNC(=O)[C@H](C)CCC45CC6CC(CC(C6)C4)C5)CC3)c3ncnc(N)c23)ccc1Oc1ccccc1; target or system = ERBB3 (Homo sapiens, UniProt P21860); assay = ATP-site binding, LanthaScreen TR-FRET; setting = 3 h; measurement = IC50; value = 326 nM
Compound = COC(C)(C)Cn1cc(-c2ccc3cc(OC4CC4)ccc3c2)c2c(N)ncnc21; target or system = Calmodulin-domain protein kinase 1, putative; assay = enzyme activity, inhibitor, Kinase-Glo; setting = together with: syntide-2; measurement = IC50; value = 30 nM
Compound = [2H]c1c([2H])c(S(=O)(=O)N2CCC([2H])(C(=O)Nc3ccc4cc(C(=O)O)ccc4c3)CC2)c(C([2H])([2H])[2H])c([2H])c1C([2H])([2H])[2H]; target or system = FAAH (Homo sapiens, UniProt O00519); setting = pH 8, 37 °C, together with: OMP substrate 50 µM; measurement = IC50; value = 6800 nM
Compound = C=CC(=O)Nc1cc(-n2c(=O)ccc3cnc4ccc(-c5cn[nH]c5)cc4c32)ccc1C; target or system = EGFR (Homo sapiens, UniProt P00533, T790M); assay = kinase activity, inhibitor; measurement = IC50; value = 137 nM
Compound = COc1cccc(Nc2ncc(Oc3cccc(N(C)C)c3)cn2)c1; target or system = Amyloid-beta precursor protein, Aβ42 with fibrinogen (APP, Homo sapiens, UniProt P05067); assay = AlphaLISA; measurement = IC50; value = 6420 nM
Compound = C1=C(CCNCc2ccccc2)CCCC1; target or system = Phenylalanine--tRNA ligase alpha subunit, with beta subunit (pheS, Bacillus subtilis, UniProt P17921); assay = phenylalanine activation, inhibitor; measurement = IC50; value = > 300 µg/mL
Compound = O=S(=O)(Nc1ccc2c(c1)B(O)OC2)c1ccccc1F; target or system = Leucine--tRNA ligase; measurement = IC50; value = 28000 ± 1000 nM
Compound = O=C(Cn1c(-c2cscn2)nc2ccccc21)Nc1ccc2ccccc2c1; target or system = Inosine-5'-monophosphate dehydrogenase; assay = enzyme activity, inhibitor, NADH fluorescence; system = recombinant enzyme; measurement = IC50; value = 7.4 nM and 7 nM
Compound = CC(C)OCc1nn[nH]c1CNS(=O)(=O)c1ccc(Cl)cc1; target or system = VIM-2; assay = enzyme activity, inhibitor; setting = together with: nitrocefin; measurement = IC50; value = 100 ± 100 nM
Compound = O=[N+]([O-])c1ccccc1S(=O)(=O)Nc1ccc2c(c1)B(O)OC2; target or system = Leucine--tRNA ligase; measurement = IC50; value = > 100000 nM
Compound = O=C(NC1CCN(c2ncnc3[nH]cnc23)CC1)c1cccc(NS(=O)(=O)c2ccc([N+](=O)[O-])cc2)c1; target or system = A549-ACE2; setting = 0.2743 µM; measurement = viability; value = 105%
Compound = CC(CCN[C@H](CN[C@H](CO)CN1CCC[C@H]1CN[C@H](CN)c1ccccc1)c1ccccc1)c1ccccc1 (stereo partly shown); target or system = aacA4; assay = acetyltransferase activity, inhibitor; measurement = IC50; value = 2100 nM
Compound = Cc1ccccc1S(=O)(=O)Nc1cccc(C(=O)NC2CCN(c3ncnc4[nH]cnc34)CC2)c1; target or system = A549-ACE2; setting = 66.67 µM; measurement = viability; value = 90.4%
Compound = O=C(Cn1c(-c2nccs2)nc2ccccc21)Nc1ccc2ccccc2c1; target or system = Inosine-5'-monophosphate dehydrogenase; assay = enzyme activity, inhibitor, NADH fluorescence; system = recombinant enzyme; measurement = IC50; value = 8 ± 3 nM
Compound = CCC(c1ccc(-c2ccc3sccc3c2)cc1)n1ccnc1 (stereo not shown); target or system = cyp121; assay = binding; measurement = Kd; value = 2700 ± 520 nM
Compound = CO[C@H]1[C@H](O[C@H]([C@H]2O[C@@H](n3ccc(=O)[nH]c3=O)[C@H](O)[C@@H]2O)[C@H](NCCCNC(=O)[C@@H](NC(=O)[C@@H](NC(=O)N[C@H](C(=O)O)C(C)C)[C@@H]2CCNC(=N)N2)[C@@H](OC(=O)CCCCCCCCCCCCNC(=N)N)C(C)C)C(N)=O)O[C@H](CN)[C@H]1O; target or system = UDP-N-acetylglucosamine--dolichyl-phosphate N-acetylglucosaminephosphotransferase; assay = enzyme activity, inhibitor; measurement = IC50; value = 200 ± 58 nM
Compound = Nc1nc(N)c2c(Cl)c(CNc3ccc(C(=O)O)cc3)ccc2n1; target or system = folA (Mycobacterium tuberculosis, UniProt P9WNX1); assay = enzyme activity, inhibitor; setting = Mycobacterium tuberculosis enzyme; measurement = IC50; value = 8.7 nM
Compound = CO[C@H]1[C@H](O[C@H]([C@H]2O[C@@H](n3ccc(=O)[nH]c3=O)[C@H](O)[C@@H]2O)[C@H](NCCCNC(=O)[C@@H](NC(=O)[C@@H](NC(=O)N[C@H](C(=O)O)C(C)C)[C@@H]2CCNC(=N)N2)[C@@H](OC(=O)CCCCCCCCCCCCN(O)C(=N)N)C(C)C)C(N)=O)O[C@H](CN)[C@H]1O; target or system = UDP-N-acetylglucosamine--dolichyl-phosphate N-acetylglucosaminephosphotransferase; assay = enzyme activity, inhibitor; measurement = IC50; value = 160 ± 15 nM
Compound = CCCCn1cc[n+](CC(O)(P(=O)([O-])O)P(=O)(O)O)c1 (stereo not shown); target or system = vacuolar soluble pyrophosphatase 1 (Trypanosoma cruzi, UniProt Q4JH30); assay = exopolyphosphatase activity, inhibitor, malachite green phosphate; setting = 10 min, pH 6.5, 30 °C, together with: 100 µM polyphosphate; measurement = IC50; value = ~45000 nM
Compound = COc1ccc(-c2csc(Cn3ccnc3)c2)cc1OC; target or system = cyp121; assay = binding; measurement = Kd; value = 62700 ± 12400 nM
Compound = [11CH3]Nc1ccc(C(=O)C2CCN(C3Cc4ccccc4CC3O)CC2)cc1 (single isomer, unassigned); system = Sprague-Dawley rat, normal, liver; setting = dose not given, 30 min; measurement = radioactivity uptake; value = 2.44 %ID/g
Compound = N=C(CCl)NCCC[C@H](NC(=O)c1ccc(O)cc1)C(=O)NCc1ccccc1; target or system = PADI4 (Homo sapiens, UniProt Q9UM07); assay = enzyme activity, inhibitor; setting = 37 °C, 10 min preincubation, together with: Z-Arg-AMC; measurement = IC50; value = 836 ± 240 nM
Compound = C#CCOCCC(=O)N[C@H](Cc1ccccc1)C(=O)N[C@@H](Cc1ccccc1)C(=O)N[C@@H](CCCNC(=N)N)C(=O)CCl; target or system = Replicase polyprotein 1ab, main protease (rep, Severe acute respiratory syndrome coronavirus 2, UniProt P0DTD1); assay = enzyme activity, inhibitor; setting = near enzyme concentration; measurement = IC50; value = 20 ± 2 nM
Compound = C[C@H](CS)C(=O)N[C@H](Cc1c[nH]c2ccccc12)C(=O)O; target or system = Metallo-beta-lactamase type 2 (Aeromonas hydrophila, UniProt P26918); assay = enzyme activity, inhibitor; measurement = IC50; value = ~400000 nM
Compound = O=S(=O)(NCc1[nH]nnc1CNC1CCCCC1)c1ccccc1; target or system = VIM-2; assay = enzyme activity, inhibitor; setting = approximate value; measurement = IC50; value = ~100 nM
Compound = CC(Oc1ccccc1)C(=O)Nc1ccc(Cl)cc1 (stereo not shown); target or system = Inosine-5'-monophosphate dehydrogenase (guaB, Helicobacter pylori, UniProt P56088); assay = enzyme activity, inhibitor; setting = corrected for open enzyme conformation; measurement = IC50; value = 1100 nM

Some of these lines once more:
Compound = Nc1nc(N)c2c(Cl)c(CNc3ccc(C(=O)O)cc3)ccc2n1; target or system = folA (Mycobacterium tuberculosis, UniProt P9WNX1); assay = enzyme activity, inhibitor; setting = Mycobacterium tuberculosis enzyme; measurement = IC50; value = 8.7 nM
Compound = CO[C@H]1[C@H](O[C@H]([C@H]2O[C@@H](n3ccc(=O)[nH]c3=O)[C@H](O)[C@@H]2O)[C@H](NCCCNC(=O)[C@@H](NC(=O)[C@@H](NC(=O)N[C@H](C(=O)O)C(C)C)[C@@H]2CCNC(=N)N2)[C@@H](OC(=O)CCCCCCCCCCCCN(O)C(=N)N)C(C)C)C(N)=O)O[C@H](CN)[C@H]1O; target or system = UDP-N-acetylglucosamine--dolichyl-phosphate N-acetylglucosaminephosphotransferase; assay = enzyme activity, inhibitor; measurement = IC50; value = 160 ± 15 nM
